Published values of several laboratories.
Lines come from different studies, so protocols differ. ± gives the spread as reported.
Cell line: Vero

The CC50 of `CCC(CC)COC(=O)[C@H](C)N[P@](=O)(OC[C@H]1O[C@@](C#N)(c2ccc3c(N)ncnn23)[C@H](O)[C@@H]1O)Oc1ccccc1` is reported as > 100 µM.
`CCCCCCC#Cc1cncc(-c2nnc(Sc3ccc([N+](=O)[O-])cc3[N+](=O)[O-])n2C)c1` has a CC50 of 28 ± 0.951 µM (72 h).
For `O=c1[nH]c(=O)n([C@@H]2O[C@H](COCc3ccccc3)[C@@H](OCc3ccccc3)[C@H](OCc3ccccc3)[C@H]2I)cc1F`, the CC50 was > 50 µM (MTT; DMEM with 10% FBS; 72 h).
The CC50 of `CCCCCCCCCCCCCCCC(=O)N[C@H]1C[C@@H](O)[C@@H](O)NC(=O)[C@@H]2[C@@H](O)[C@@H](C)CN2C(=O)[C@H]([C@@H](C)O)NC(=O)[C@H]([C@H](O)[C@@H](O)c2ccc(O)cc2)NC(=O)[C@@H]2C[C@@H](O)CN2C(=O)[C@H]([C@@H](C)O)NC1=O` is reported as 61 ± 4 µg/mL (MTT; 24 h).
For `CC(C)C[C@H](NC(=O)OCc1ccccc1)C(=O)N[C@H](C=O)C[C@@H]1CCCNC1=O`, the CC50 was > 100 µM (cytotoxicity).
`Nc1ccn([C@@H]2O[C@H](COCc3ccccc3)[C@@H](OCc3ccccc3)[C@H](OCc3ccccc3)[C@H]2I)c(=O)n1` gave a CC50 of 42.8 µM (MTT; DMEM with 10% FBS; 72 h).
The CC50 of `CC(C)NCC(O)COc1cccc2ccccc12` (stereo not drawn) is reported as 86.1 µM (MTT; 72 h).
`CCCCCCCCCC(=O)N[C@@H](Cc1c[nH]c2ccccc12)C(=O)N[C@H](CC(N)=O)C(=O)N[C@@H](CC(=O)O)C(=O)N[C@@H]1C(=O)NCC(=O)N[C@@H](CCCN)C(=O)N[C@@H](CC(=O)O)C(=O)N[C@H](C)C(=O)N[C@@H](CC(=O)O)C(=O)NCC(=O)N[C@H](CO)C(=O)N[C@@H]([C@H](C)CC(=O)O)C(=O)N[C@@H](CC(=O)c2ccccc2N)C(=O)O[C@@H]1C` gave a CC50 of 0.74 ± 0.1 µg/mL (MTT; 24 h).
With `CC(C)NCC(O)COc1ccc(COCCOC(C)C)cc1` (racemic) the CC50 was 10 to 30 µM (MTT; 72 h).
For `CC(C)C[C@H](NC(=O)OCc1ccccc1)C(=O)N[C@@H](CC(C)C)C(=O)N[C@@H](CC1CCNC1=O)C(=O)C(=O)NC1CC1` (stereo partly drawn), the CC50 was > 250 µM (5 (unit not given)).
`O=c1[nH]c(=O)n([C@@H]2O[C@H](COCc3ccccc3)[C@@H](OCc3ccccc3)[C@H](OCc3ccccc3)[C@H]2I)cc1I` has a CC50 of > 50 µM (MTT; DMEM with 10% FBS; 72 h).
The CC50 of `CC(C)NCC(O)COc1cccc2[nH]ccc12` (stereo not drawn) is reported as 20 to 60 µM (MTT; 72 h).

Some of these lines once more:
For `O=c1[nH]c(=O)n([C@@H]2O[C@H](COCc3ccccc3)[C@@H](OCc3ccccc3)[C@H](OCc3ccccc3)[C@H]2I)cc1F`, the CC50 was > 50 µM (MTT; DMEM with 10% FBS; 72 h).
